Results collected from several papers.
A part holds a random share of what one study measured.

Block 1 — method: RNA Bind-n-Seq; molecule type: RNA; sample: in vitro; concentration: 365 nM; baseline: no-protein control; direction: higher = stronger binding
Target: RNA binding protein fox-1 homolog 2, RRM domain, GST-SBP tag (RBFOX2, Homo sapiens, UniProt O43251-10, residues 100-194)
Setting: natural RNA segment, single round, ends assumed
Constant ends, left off below: GGGAGUUCUACAGUCCGACGAUC … UGGAAUUCUCGGGUGCCAA
Target sequence (chain): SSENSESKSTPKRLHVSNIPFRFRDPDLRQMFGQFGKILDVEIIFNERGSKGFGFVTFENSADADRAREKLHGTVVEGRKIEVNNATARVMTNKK
`CCCUUGGUUACCACCUACCCACCUUGCCUAUUUUAAGUGAAACUUACCACCAAUGAUGUGGGGAAGUGUGUUUCCCUAACAACUGGAGUUUUAGCCUAACCCUGAUCCCU`: “RBNS enrichment (R)” 0.783.
For `CUGUUUCGAAUGGAAGCUUUCUCAGCAGACAAUGUGUGCACAGUAAACUUCAGCAGAGUCCACUUGUUCUCCCGGAAGCUUAAUGUAAUUGAAUGGCAGUUAUCACUAAA`, “RBNS enrichment (R)” read 1.45.
`GGUUUCUUCAUUUUCUUCCAUUACUUAGGAAAGAGUGGAAACUCCACUAAAAUUUCUCUGUGUUGUUACAGUCUUAGAGGUUGCAGUACUAUAUUGUAAGCUUUGGUGUU` — result for “RBNS enrichment (R)”: 0.691.
For `CAGAGGGUCCCCCUUGUGGGUGCGCUUGGAUGUGCAGAGCCUUCUCCAUGGAUUUUCUUCCCUGUAAGUGCCGGGCCCCUCACCCCAGCUGACAGGCUGUUGCUGUGCCU`, “RBNS enrichment (R)” read 0.274.
Under “RBNS enrichment (R)”, `GUUCCGUGAUGUAGGGUAAGGUGCCUUCUUAUUCUCACUCCACCACCCAAAAGUCAAAAGGUGCCUGUGAGGCAGGGGCGGAGUGAUACAACUUCAAGUGCAUGCUCUCU` is recorded as 16.7.
`GCAGUCUCAUGCAUGAGAGGUUACCCUUCAGGAUGACAGAGCUGAGGGUCUUUGUAGGAGUUGCUCUUGCUGUGUAAAGCACUAUUGUCUUGGGGUUGAGCCCUAGGGCA`: “RBNS enrichment (R)” 14.4.
`UGAUUCAGAUGAAUUCAUGUAAAAGGAGAAAAGGAGAAAAGGACCUUUGAAAGAUGUGAAUGUAGAGACAAUUGCAGACCUUUUGGUUUCAUCUGUGUUCUGAAAUAUAA`: “RBNS enrichment (R)” 0.685.
`CUCCCAGCUCCUGACUGUGGCAGCUGUGGUAGUGGCAGUACCAGAAUUAGCCGCUUCUUUUCCUCCCAACCUCUUAGCCGGGUAGAGAGGCAUUCCCAGGGGCUCCUGUC`: “RBNS enrichment (R)” 0.465.
`CUAUGUCUGGGACUACGAUCCCUUUUCCCUGGGUAAUAAACUCAGCCACCCAUCCUAAGGAGGCAAGCACUUGGCCUCUUUGAGUGAGACUUGGCUUUAGGACUCUCUGC`: “RBNS enrichment (R)” 0.347.
For `GUCAGUGAAUCUGCUUGCCUUUCCUGAAAGUUUCUGGGGCUUAAGAUUCCAGACUCUGAUUCAUUAAACUAUAGUCACCCGUGUCCUGUGAUUUUAGUUUUCAUUUGUGU`, “RBNS enrichment (R)” read 0.789.
`ACACGUGUUUUUACUGACUGAAGCCAACCAUCCUGAACUGUCAUGCAGAGAAUUCUUGCAGGAAUCAAUAAGGACGUGUCUCUAAUCACGUGUGCGAACUGAAAUGUCAU` — result for “RBNS enrichment (R)”: 0.452.
Under “RBNS enrichment (R)”, `AAACUUACAUCUAGCAACUUGGAAAGCACUUUCUCUGGGGAUCUUCUUUUGUAACUUUGCAGACAAAUAAGUAUGAGUCACUGGGGAGAGAGUUUGUUAUUGAAAUAGAU` is recorded as 0.555.

Block 2 — method: protein binding microarray; molecule type: double-stranded DNA, one strand shown; sample: in vitro; concentration: not given; baseline: not given; direction: higher = stronger binding
Target: Histone acetyltransferase KAT6A, winged helix 1, GST fusion (KAT6A, Homo sapiens, UniProt Q92794, residues 1-85)
Setting: 8-mer, flanks averaged, mean of 2 arrays, mostly near background
Target sequence (chain): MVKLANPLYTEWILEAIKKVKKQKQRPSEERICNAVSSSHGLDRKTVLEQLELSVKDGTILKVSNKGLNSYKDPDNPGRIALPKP
With `CCGTAGAA` the E-score was 0.128.
`AGAGGCCG` has an E-score of 0.118.
For `ATAGCCTC`, the E-score was 0.0668.
For `CGGGAAAG`, the E-score was 0.187.
With `TGCCAGCA` the E-score was -0.199.
The E-score of `GACGATCC` is reported as -0.139.
`TTATCGAA` has an E-score of 0.000825.
`TATCACCA` has an E-score of -0.0812.
`ACCCTGTC` has an E-score of -0.0369.
`AGGACTGC` has an E-score of -0.173.
The E-score of `AAGCCCGA` is reported as 0.105.
With `AAGCCGCG` the E-score was 0.422.
`GCGTGAGA` gave an E-score of 0.111.
With `AATTCAAT` the E-score was -0.153.
With `AATTGACT` the E-score was -0.222.
`ATCAGTCA` has an E-score of -0.151.
`AAGAGGAC` gave an E-score of -0.147.
`TACTATAA` gave an E-score of -0.0651.
`ACGCATAT` has an E-score of -0.00108.
`GCCTCCGC` has an E-score of 0.338.
`ACATATCA` gave an E-score of -0.00227.
`AGCCAAGC` gave an E-score of -0.117.
`CTCAGGAA` gave an E-score of -0.146.
`GCTGGTAC` has an E-score of 0.0441.
With `CTTGGAGA` the E-score was -0.178.

Block 3 — method: protein-binding microarray; molecule type: double-stranded DNA, one strand shown; sample: in vitro; concentration: 0.8 µM; setting: whole 60-bp probe, no competitor; direction: higher = stronger binding; constant ends, left off below: … GTCTTGATTCGCTTGACGCTGCTG
Target: Centromere-binding protein 1, full length, N-terminal tag (CBF1, Saccharomyces cerevisiae, UniProt P17106, residues 1-351)
Chain of UniProt P17106 (whole entry, looked up): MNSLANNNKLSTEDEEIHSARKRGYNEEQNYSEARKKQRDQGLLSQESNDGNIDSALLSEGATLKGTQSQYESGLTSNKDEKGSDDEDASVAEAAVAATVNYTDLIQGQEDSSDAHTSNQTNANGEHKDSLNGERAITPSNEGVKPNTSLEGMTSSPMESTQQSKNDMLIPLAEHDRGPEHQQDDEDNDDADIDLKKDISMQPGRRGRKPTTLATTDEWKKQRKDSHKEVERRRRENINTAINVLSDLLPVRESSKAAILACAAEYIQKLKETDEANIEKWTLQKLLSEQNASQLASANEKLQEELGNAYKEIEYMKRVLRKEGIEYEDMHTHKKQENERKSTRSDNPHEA
`GAAGATACTAATGTAGACGTGGTGTTACTACAATAG` gave a fluorescence intensity of 529 a.u.
The fluorescence intensity of `GAATTTCTTTTTCATCAGGTACCATAATGAAAATAG` is reported as 578 a.u.
`TGTACGAAGCTATACAGCATGATTATAGTAGTTAGG` gave a fluorescence intensity of 525 a.u.
The fluorescence intensity of `CTACTGGATATTCACCACACCTGATTGGGAAGATTC` is reported as 748 a.u.
`CTATATGCTTGCCCTTACATCAGAATTACCAAGTTC` has a fluorescence intensity of 552 a.u.
`CTATGTAGTATTGAACGTGACAGGAAACAAAAATTC` gave a fluorescence intensity of 1660 a.u.
With `GAATTCAGAGAGCAGGTGATGACAAAAGTTACGTAG` the fluorescence intensity was 1690 a.u.
For `GAAAGTAGGACGATTTACACCTGAGTTGGGTGTTAG`, the fluorescence intensity was 525 a.u.
The fluorescence intensity of `GAAATTACACAGCTACATGTGATATATATCGGGTAG` is reported as 1510 a.u.
With `GAATCTTCTTTTTAGCATGTGCTGTAATTTGGCTAG` the fluorescence intensity was 929 a.u.
`GAATGTCACTCATGTTTCGTGATAAAAGAAATATAG` has a fluorescence intensity of 623 a.u.
`CTACTGGTCCAAGAAGACGTGATTTACAAGACATTC` has a fluorescence intensity of 619 a.u.
With `CTAGAGAAGATCTATCACACGATATCTCCATAGTTC` the fluorescence intensity was 535 a.u.
For `GAAATAGTCTTCTATCTGATGCTTTCGTACTCTTAG`, the fluorescence intensity was 514 a.u.
`GAATTTCCCACAACCGGCACCACCAATTGACCTTAG` gave a fluorescence intensity of 519 a.u.
For `GAATGATTACTGGTTAACGTGCTTGAAGAAGAATAG`, the fluorescence intensity was 722 a.u.
`CTATTATACCACCACCACATGCCATACTCACCCTTC` gave a fluorescence intensity of 555 a.u.
`GAAACAATTATTAGCCATCAGTACTTCTCTTTTTAG` has a fluorescence intensity of 484 a.u.
With `GAAGATGAGTAGGTTAGCGTCACCTAGTGGCGGTAG` the fluorescence intensity was 487 a.u.

Block 4 — method: RNA Bind-n-Seq; molecule type: RNA; sample: in vitro; concentration: 200 nM; setting: whole 134-nt RNA, ends assumed; together with: 150 mM KCl; baseline: input library; direction: higher = stronger binding
Target: Fragile X messenger ribonucleoprotein 1, C-terminal low-complexity region (Fmr1, Mus musculus, UniProt P35922)
Constant ends, left off below: GGGAGUUCUACAGUCCGACGAUC … UGGAAUUCUCGGGUGUCAAGG
`UCCUCAAGUCCUGUGCUACACAUCGUAUGUACCGAAUCGGGUGGGUGGUGGGAAAGUAUUAUGUUACGCCGUUCGGAUCUGCACUUCCAG` has a log2 enrichment of 1.32.
The log2 enrichment of `UGGCCCUGGUGGCAUGCGGGGAGGAAGAGGUGGCCUCAUGCAUCGUGGUGGUCCCGGUGGAAUGUUCAGAGGUGGCCGUGGUGGAGACAG` is reported as -0.0156.
`CCUGUGCUACACAUCGUAUGUACCGAAUCGGGUUUUUUGGUUUUUUGGGGUUUUUUGGGGAAAGUAUUAUGUUACGCCGUUCGGAUCUGC` gave a log2 enrichment of -0.593.
`AGUCCUGUGCUACACAUCGUAUGUACCGAAUCGGGAAAAAGGGAAAAAGGAAAAAGGGAAAGUAUUAUGUUACGCCGUUCGGAUCUGCAC` gave a log2 enrichment of -0.608.
`AAGUCCUGUGCUACACAUCGUAUGUACCGAAUCGGGGAAAAAGGGGUGGGGUGGGGAAAGUAUUAUGUUACGCCGUUCGGAUCUGCACUU` gave a log2 enrichment of 1.03.
For `AAGUCCUGUGCUACACAUCGUAUGUACCGAAUCGGGGAAAAAGGGGAGGGGAGGGGAAAGUAUUAUGUUACGCCGUUCGGAUCUGCACUU`, the log2 enrichment was 0.57.
`UGACCCUGGUGGCAUGCGGGGAGGAAGAGGUGGCCUCAUGGAUCGUGGUGGUCCCGGUGGAAUGUUCAGAGGUGGCCGUGGUGGAGACAG` gave a log2 enrichment of 0.171.
The log2 enrichment of `GUCCUGUGCUACACAUCGUAUGUACCGAAUCAAACCCAAACCCCCAAAUUUUUUUAAAAAAGUAUUAUGUUACGCCGUUCGGAUCUGCAC` is reported as -0.226.
`UGGCCCUGGUGGCAUGCGGGGAGGAAGAGGUGGCCUCAUGGAUCGUGGUGGUGCCGGUGGAAUGUUCAGAGGUGGCCGUGGUGGAGACAG` has a log2 enrichment of 0.118.
For `GCAGGAAGUAAAAACAAAUGGAAAUGCUUCGGAUAGUGGCAGGGGUGGGGGUUGCAAAGGAAAGGGUGGGAUGGGAGUGGGUAAAGAGUU`, the log2 enrichment was 0.0253.
`CUCAAGUCCUGUGCUACACAUCGUAUGUACCGAAUCGGGGCGGGCGGGGCGGGGAAAGUAUUAUGUUACGCCGUUCGGAUCUGCACUUCC` has a log2 enrichment of 0.868.
`CUGUGCUACACAUCGUAUGUACCGAAUCGGGGAAAAAGGGGUUUUUGGGGUUUUUUUGGGGAAAGUAUUAUGUUACGCCGUUCGGAUCUG` has a log2 enrichment of 0.000127.
For `CACAGACAACACGCACCCACACAGACACAGAGGGAAGGGGUUGGGAUGGGGACAGGAUGCACAGCAGGGCGGGGUAGGACCCCAGCCCCU`, the log2 enrichment was 1.15.
With `UGGGAGGUGGAUUUUGUUUAUUUUUUUAGCUCAUUUCCAGGGGUGGGAAUUUCUUUUUAAUAUGUGUCAUGAAUAAAGUUGUUUUUGAAA` the log2 enrichment was 0.27.

A few entries again (block 3):
`GAAGATACTAATGTAGACGTGGTGTTACTACAATAG` gave a fluorescence intensity of 529 a.u.
The fluorescence intensity of `GAATTTCTTTTTCATCAGGTACCATAATGAAAATAG` is reported as 578 a.u.
`TGTACGAAGCTATACAGCATGATTATAGTAGTTAGG` gave a fluorescence intensity of 525 a.u.
The fluorescence intensity of `CTACTGGATATTCACCACACCTGATTGGGAAGATTC` is reported as 748 a.u.
`CTATATGCTTGCCCTTACATCAGAATTACCAAGTTC` has a fluorescence intensity of 552 a.u.
`CTATGTAGTATTGAACGTGACAGGAAACAAAAATTC` gave a fluorescence intensity of 1660 a.u.
With `GAATTCAGAGAGCAGGTGATGACAAAAGTTACGTAG` the fluorescence intensity was 1690 a.u.
For `GAAAGTAGGACGATTTACACCTGAGTTGGGTGTTAG`, the fluorescence intensity was 525 a.u.
The fluorescence intensity of `GAAATTACACAGCTACATGTGATATATATCGGGTAG` is reported as 1510 a.u.
With `GAATCTTCTTTTTAGCATGTGCTGTAATTTGGCTAG` the fluorescence intensity was 929 a.u.
`GAATGTCACTCATGTTTCGTGATAAAAGAAATATAG` has a fluorescence intensity of 623 a.u.
`CTACTGGTCCAAGAAGACGTGATTTACAAGACATTC` has a fluorescence intensity of 619 a.u.
